Results gathered from unrelated publications.
Protocols differ between the studies behind these lines. ± marks the error that the study gave. Where no end group is shown, it is not given here. [ ]: non-standard residue; d: D form. The star is where a group is joined.

Substance | cell line | test | test system | setting | scale | endpoint | result
COc1ccc(C[C@]2(O)COc3cc(O)cc(O)c3C2=O)cc1 | 92-1 uveal melanoma cells | alamarBlue | – | 48 h | – | GI50 | > 100000 nM
Cc1ccccc1/C=C/[C@]1(O)CC[C@H]2[C@@H]3CCc4cc(O)ccc4[C@H]3CC[C@@]21C | Ishikawa | alkaline phosphatase induction, agonist | – | concentration not given, 3 d | relative to: estradiol | relative stimulatory activity | 31.8%
Cc1nc(Nc2ncc(C(=O)Nc3c(C)cccc3Cl)s2)cc(N2CCN(CCO)CC2)n1 | U-87 MG | fibronectin Boyden chamber | – | 50 nM, 6 h | relative to: vehicle | cell invasion | 40.3 ± 7.86%
VV[dF]A (D-Phe3) | PC-12 | protection from Aβ1–42 toxicity, MTT | – | concentration not given, 6 h, Aβ to peptide ratio 1:5, with: Aβ1–42 2 µM | relative to: untreated cells | cell viability | 73%
CCCCNNC(=O)c1ccc(Br)cc1 | NCI60 panel | – | – | – | – | GI50 | 2940 nM
PACAP-27 | NCI-H838 | Fura-2 fluorescence, refers to: cytosolic Ca2+ | – | 100 nM | – | time to peak | ~15 s
Cc1cccc(/C=C/[C@]2(O)CC[C@H]3[C@@H]4CCc5cc(O)ccc5[C@H]4CC[C@@]32C)c1 | Ishikawa | alkaline phosphatase induction, agonist | – | concentration not given, 3 d | relative to: estradiol | relative stimulatory activity | 5 ± 1.4%
methyl-β-cyclodextrin | K562 cells | micropipette aspiration | – | 10 mM, 15 min, 37 °C | – | aspiration pressure | 38 ± 9 pN/µm²
CCN(CC)CCNC(=O)c1ccc(NC(C)=O)cc1 | human iPSC-derived cardiomyocytes | calcium transient | – | 10 µM, 90 min, 5 donors | relative to: vehicle | effect on decay-rise ratio | no effect
COc1ccc(-c2nc3ccc(C4=NNC(=O)CC4C)cc3[nH]2)cc1 (centres unmarked) | hiPSC-derived 3D engineered cardiac tissue | contractility | serum-free medium | concentration not given, 15 min, paced at 1 Hz | relative to: time-matched vehicle | active force | increased
V[dI]IA (D-Ile2) | PC-12 | protection from Aβ1–42 toxicity, MTT | – | concentration not given, 6 h, Aβ to peptide ratio 1:10, with: Aβ1–42 2 µM | relative to: untreated cells | cell viability | 78.1%
C[C@@H]1[C@]2(O[C@H]3C=C4[C@@H]5CC[C@H]6Cc7nc8c(nc7C[C@]6(C)[C@H]5C[C@@H](O)[C@]4(C)[C@]31O)C[C@@H]1CC[C@H]3C4=CC[C@@H]5[C@H](C)[C@@]6(OC[C@]45C(=O)C[C@@H]3[C@@]1(C)C8)OC(C)(C)C[C@H]6O)O[C@](C)(CO)C[C@H]2O | CHO NPC1-/- (M12) | – | – | concentration not given | relative to: wild-type CHO | antiproliferative activity change | no effect
C=CC(=O)Nc1cc2c(Nc3ccc(F)c(Cl)c3)ncnc2cc1C#CC(C)(C)N1CCN(C)CC1 | NIH3T3 in SKOV/NIH microtissues | fibroblast toxicity | – | chronic toxicity, unit not given | relative to: AC50 ATP over AC50 NanoLUC, day 7 | therapeutic window | 28.4
N#Cc1ccc(-c2csc(NN=Cc3c(F)c(F)c(F)c(F)c3F)n2)cc1 | HCT-116 | colony formation | – | 5 µM, 24 h | – | inhibition | 5 to 50%
[dA]VIA (D-Ala1) | PC-12 | protection from Aβ1–42 toxicity, MTT | – | concentration not given, 6 h, Aβ to peptide ratio 1:5, with: Aβ1–42 2 µM | relative to: untreated cells | cell viability | 70%
CC[C@H](C)C(=O)O[C@H]1C[C@H](O)C=C2C=C[C@H](C)[C@H](CC[C@@H](O)C[C@@H](O)CC(=O)O)[C@H]21 | hiPSC-derived 3D engineered cardiac tissue | contractility | serum-free medium | concentration not given, 15 min, paced at 1 Hz | relative to: time-matched vehicle | active force | no effect
Cc1cn(-c2cc(NC(=O)c3ccc(C)c(Nc4nccc(-c5cccnc5)n4)c3)cc(C(F)(F)F)c2)cn1 | K562 K562-T315I | – | – | 48 h | – | GI50 | 1940 nM
CC(=O)c1s/c(=N/N=C(\C)c2ccccn2)[nH]c1C | HEp-2 | cell growth or viability, SRB | – | 100 µg/mL, 48 h | – | inhibition | 70.1%
VV[dI]A (D-Ile3) | PC-12 | protection from Aβ1–42 toxicity, MTT | – | concentration not given, 6 h, Aβ to peptide ratio 1:5, with: Aβ1–42 2 µM | relative to: untreated cells | cell viability | 70%
5FAM-KKSRRC(Farnesyl)VLS (N-5-FAM, S-farnesyl-Cys; 5FAM = O=C1OC2(c3ccc(O)cc3Oc3cc(O)ccc32)c2ccc(C(=O)*)cc21; Farnesyl = CC(C)=CCC/C(C)=C/CC/C(C)=C/C*) | PC-12 | flow cytometry | – | 1 µM, 2 h, 37 °C | relative to: other cell lines | cellular uptake | increased
CCn1c(C)c(C(C)=O)s/c1=N/N=C(\C)c1ccccn1 | HEp-2 | cell growth or viability, SRB | – | 100 µg/mL, 48 h | – | inhibition | 71.9%
CC(=O)Oc1ccccc1C(=O)O | hiPSC-derived 3D engineered cardiac tissue | contractility | serum-free medium | concentration not given, 15 min, paced at 1 Hz | relative to: time-matched vehicle | active force | no effect

Substance | cell line | test | test system | setting | scale | endpoint | result
C#C[C@@]1(O)[C@@H](CO)O[C@@H](n2cc(Br)c3c(N)ncnc32)[C@@H]1O | NCI-H460 | cell growth or viability, SRB | – | 48 h | – | GI50 | 34 nM
[dP]VIA (D-Pro1) | PC-12 | protection from Aβ1–42 toxicity, MTT | – | concentration not given, 6 h, Aβ to peptide ratio 1:5, with: Aβ1–42 2 µM | relative to: untreated cells | cell viability | 72.7%
CC(=O)C1S/C(=N/N=C(\C)c2ccccn2)NC1=O (centres unmarked) | HEp-2 | cell proliferation, SRB | – | 100 µg/mL, 48 h | – | inhibition | > 75%
COc1cc(CC=O)ccc1O | PC6-3 | tyrosine hydroxylase inhibition, HPLC | – | – | relative to: DOPAL | intracellular level ratio | 2 fold
Oc1cc(O)c2cc(O)c(-c3cc(O)c(O)c(O)c3)[o+]c2c1 | human podocytes | RT-PCR or Western blot, refers to: VEGF-A165b and VEGF-A165a | high glucose (diabetic) | 10 µg/mL, 48 h | – | VEGF-A165b/VEGF-A165a ratio | 2.67
CSTSCG | B16-F10 | – | peptide | 2 µg coated per well, 30 to 60 min | relative to: thrombospondin-coated wells | adherent cells | 37%
N[C@@H](Cc1cc(I)c(Oc2ccc(O)c(I)c2)c(I)c1)C(=O)O | iPSC-derived intestinal progenitor cells | refers to: villin 1 | – | concentration not given | relative to: DMSO | mRNA level | increased
Cc1cccc(C=NNc2nc(-c3ccc(C#N)cc3)cs2)c1O | HCT-116 | colony formation | – | 10 µM, 24 h | – | inhibition | 100%
VVI[dF] (D-Phe4) | PC-12 | protection from Aβ1–42 toxicity, MTT | – | concentration not given, 6 h, Aβ to peptide ratio 1:10, with: Aβ1–42 2 µM | relative to: untreated cells | cell viability | 71.2%
Cc1ccc(-c2ncn(-c3ccc(Nc4nccc(-c5cccc(N6CCOCC6)c5)n4)cc3)n2)cn1 | NIH3T3 in SKOV/NIH microtissues | fibroblast toxicity | – | chronic toxicity, unit not given | relative to: AC50 ATP over AC50 NanoLUC, day 7 | therapeutic window | 3.69
CCn1c(-c2ccc(Br)cc2)cs/c1=N/N=C(\C)c1ccccn1 | HEp-2 | cell growth or viability, SRB | – | 100 µg/mL, 48 h | – | inhibition | 58.9%
CC[C@@H](C)[C@@H](NC(=O)[C@@H](NC(=O)[C@@H](N)C(C)C)C(C)C)C(=O)N[C@@H](C)C(N)=O | PC-12 | Aβ42-induced neurotoxicity, inhibitor, MTT | – | concentration not given, 6 h, 37 °C, peptide to Aβ42 1:2, with: Aβ42 2 µM | relative to: untreated cells | viability | 76.5%
COC(=O)[C@]12CCC(C)(C)C[C@H]1[C@H]1C(=O)C=C3[C@@]4(C)C=C(C#N)C(=O)C(C)(C)[C@@H]4CC[C@@]3(C)[C@]1(C)CC2 | NIH3T3 in SKOV/NIH microtissues | fibroblast toxicity | – | 168 h, chronic toxicity, unit not given | relative to: AC50 ATP over AC50 NanoLUC, day 7 | therapeutic window | 1.33
CCC(CC)(CC)c1cc(-c2ccc(/C=C/C(=O)O)cc2Cl)ccc1O | KG-1 | cell proliferation | – | 5 µM, 48 h | – | inhibition | 0%
[Aib][Aib]IA (Aib = CC(C)(N)C(=O)O) | PC-12 | protection from Aβ1–42 toxicity, MTT | – | concentration not given, 6 h, Aβ to peptide ratio 1:1, with: Aβ1–42 2 µM | relative to: untreated cells | cell viability | 73.9%
COC1=CC(c2cc3ccccc3[nH]2)=N/C1=C\c1[nH]c(C)cc1C | NIH3T3 in SKOV/NIH microtissues | fibroblast toxicity | – | 168 h, chronic toxicity, unit not given | relative to: AC50 ATP over AC50 NanoLUC, day 7 | therapeutic window | 2.77
VCTGSC | B16-F10 | – | peptide | 2 µg coated per well, 30 to 60 min | relative to: thrombospondin-coated wells | adherent cells | 2%
Oc1ccc(-c2nc(-c3ccncc3)c(-c3ccc(F)cc3)[nH]2)cc1 | iPSC-derived intestinal progenitor cells | refers to: villin 1 | – | concentration not given | relative to: DMSO | mRNA level | increased
CC(C)C[C@H](NC(=O)[C@H](CCc1ccccc1)NC(=O)CN1CCOCC1)C(=O)N[C@@H](Cc1ccccc1)C(=O)N[C@@H](CC(C)C)C(=O)[C@@]1(C)CO1 | NIH3T3 in HEY/NIH microtissues | fibroblast toxicity | – | 168 h, chronic toxicity, unit not given | relative to: AC50 ATP over AC50 NanoLUC, day 7 | therapeutic window | 12.8
C[N+](C)(C)CCOC(N)=O | rat pancreatic acini | – | – | 1 µM, 15 min, with: PKCθ pseudosubstrate inhibitor 20 µM | relative to: total | amylase secretion | 7 ± 0.5%
CSc1cccc(Nc2ncc3cc(-c4c(Cl)cccc4Cl)c(=O)n(C)c3n2)c1 | NIH3T3 in HEY/NIH microtissues | fibroblast toxicity | – | chronic toxicity, unit not given | relative to: AC50 ATP over AC50 NanoLUC, day 7 | therapeutic window | 20.4
V[dV]IA (D-Val2) | PC-12 | protection from Aβ1–42 toxicity, MTT | – | concentration not given, 6 h, Aβ to peptide ratio 1:5, with: Aβ1–42 2 µM | relative to: untreated cells | cell viability | 70%

A few entries again:
Substance | cell line | test | test system | setting | scale | endpoint | result
Cc1nc(Nc2ncc(C(=O)Nc3c(C)cccc3Cl)s2)cc(N2CCN(CCO)CC2)n1 | U-87 MG | fibronectin Boyden chamber | – | 50 nM, 6 h | relative to: vehicle | cell invasion | 40.3 ± 7.86%
COc1cc(CC=O)ccc1O | PC6-3 | tyrosine hydroxylase inhibition, HPLC | – | – | relative to: DOPAL | intracellular level ratio | 2 fold
VVI[dF] (D-Phe4) | PC-12 | protection from Aβ1–42 toxicity, MTT | – | concentration not given, 6 h, Aβ to peptide ratio 1:10, with: Aβ1–42 2 µM | relative to: untreated cells | cell viability | 71.2%
V[dI]IA (D-Ile2) | PC-12 | protection from Aβ1–42 toxicity, MTT | – | concentration not given, 6 h, Aβ to peptide ratio 1:10, with: Aβ1–42 2 µM | relative to: untreated cells | cell viability | 78.1%
CC[C@@H](C)[C@@H](NC(=O)[C@@H](NC(=O)[C@@H](N)C(C)C)C(C)C)C(=O)N[C@@H](C)C(N)=O | PC-12 | Aβ42-induced neurotoxicity, inhibitor, MTT | – | concentration not given, 6 h, 37 °C, peptide to Aβ42 1:2, with: Aβ42 2 µM | relative to: untreated cells | viability | 76.5%
CC(=O)c1s/c(=N/N=C(\C)c2ccccn2)[nH]c1C | HEp-2 | cell growth or viability, SRB | – | 100 µg/mL, 48 h | – | inhibition | 70.1%
